Measurements from different studies.
A part holds a random share of what one study measured. “And” joins repeats or separate records; there may be more than shown.
Sequence of UniProt P15170 (whole entry, looked up): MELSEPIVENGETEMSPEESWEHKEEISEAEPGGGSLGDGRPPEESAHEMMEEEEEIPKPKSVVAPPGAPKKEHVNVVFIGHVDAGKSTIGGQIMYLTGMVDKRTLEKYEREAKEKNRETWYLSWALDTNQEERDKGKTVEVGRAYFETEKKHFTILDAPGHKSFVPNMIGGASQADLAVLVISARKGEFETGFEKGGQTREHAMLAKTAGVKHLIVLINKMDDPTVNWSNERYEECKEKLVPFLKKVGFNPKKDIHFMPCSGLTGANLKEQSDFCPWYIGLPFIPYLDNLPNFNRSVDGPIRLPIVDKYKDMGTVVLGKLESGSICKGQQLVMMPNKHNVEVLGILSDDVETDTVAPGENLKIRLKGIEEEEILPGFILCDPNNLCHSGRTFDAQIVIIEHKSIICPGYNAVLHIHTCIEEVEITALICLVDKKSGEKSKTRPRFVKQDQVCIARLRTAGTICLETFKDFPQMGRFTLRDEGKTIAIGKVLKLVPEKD
Sequence of UniProt O00329 (whole entry, looked up): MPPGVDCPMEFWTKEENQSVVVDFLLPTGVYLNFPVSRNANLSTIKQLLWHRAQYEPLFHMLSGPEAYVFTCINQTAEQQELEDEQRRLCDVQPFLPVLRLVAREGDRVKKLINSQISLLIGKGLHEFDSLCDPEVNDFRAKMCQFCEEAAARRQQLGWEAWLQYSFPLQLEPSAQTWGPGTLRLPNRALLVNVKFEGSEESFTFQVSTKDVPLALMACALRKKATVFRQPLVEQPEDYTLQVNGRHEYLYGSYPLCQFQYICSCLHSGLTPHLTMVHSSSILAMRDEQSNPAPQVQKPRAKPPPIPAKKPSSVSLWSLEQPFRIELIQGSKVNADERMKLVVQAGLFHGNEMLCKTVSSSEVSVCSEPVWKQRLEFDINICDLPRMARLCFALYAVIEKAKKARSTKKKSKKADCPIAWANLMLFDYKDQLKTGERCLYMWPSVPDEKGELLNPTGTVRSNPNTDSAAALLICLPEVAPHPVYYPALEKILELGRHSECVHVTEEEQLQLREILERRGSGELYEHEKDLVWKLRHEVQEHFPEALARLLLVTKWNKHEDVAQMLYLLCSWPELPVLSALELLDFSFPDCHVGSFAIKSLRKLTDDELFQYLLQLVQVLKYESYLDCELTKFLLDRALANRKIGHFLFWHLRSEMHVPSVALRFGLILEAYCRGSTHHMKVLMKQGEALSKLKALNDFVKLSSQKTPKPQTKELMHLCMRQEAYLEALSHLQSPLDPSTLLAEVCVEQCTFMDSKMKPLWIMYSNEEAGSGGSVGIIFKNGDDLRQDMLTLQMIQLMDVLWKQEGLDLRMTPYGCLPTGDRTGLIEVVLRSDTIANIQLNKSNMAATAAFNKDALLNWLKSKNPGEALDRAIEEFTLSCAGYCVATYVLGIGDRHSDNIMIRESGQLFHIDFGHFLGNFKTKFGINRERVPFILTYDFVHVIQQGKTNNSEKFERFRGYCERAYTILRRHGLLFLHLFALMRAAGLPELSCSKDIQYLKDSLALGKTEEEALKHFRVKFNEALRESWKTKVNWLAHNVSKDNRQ
Sequence of UniProt Q16584 (whole entry, looked up): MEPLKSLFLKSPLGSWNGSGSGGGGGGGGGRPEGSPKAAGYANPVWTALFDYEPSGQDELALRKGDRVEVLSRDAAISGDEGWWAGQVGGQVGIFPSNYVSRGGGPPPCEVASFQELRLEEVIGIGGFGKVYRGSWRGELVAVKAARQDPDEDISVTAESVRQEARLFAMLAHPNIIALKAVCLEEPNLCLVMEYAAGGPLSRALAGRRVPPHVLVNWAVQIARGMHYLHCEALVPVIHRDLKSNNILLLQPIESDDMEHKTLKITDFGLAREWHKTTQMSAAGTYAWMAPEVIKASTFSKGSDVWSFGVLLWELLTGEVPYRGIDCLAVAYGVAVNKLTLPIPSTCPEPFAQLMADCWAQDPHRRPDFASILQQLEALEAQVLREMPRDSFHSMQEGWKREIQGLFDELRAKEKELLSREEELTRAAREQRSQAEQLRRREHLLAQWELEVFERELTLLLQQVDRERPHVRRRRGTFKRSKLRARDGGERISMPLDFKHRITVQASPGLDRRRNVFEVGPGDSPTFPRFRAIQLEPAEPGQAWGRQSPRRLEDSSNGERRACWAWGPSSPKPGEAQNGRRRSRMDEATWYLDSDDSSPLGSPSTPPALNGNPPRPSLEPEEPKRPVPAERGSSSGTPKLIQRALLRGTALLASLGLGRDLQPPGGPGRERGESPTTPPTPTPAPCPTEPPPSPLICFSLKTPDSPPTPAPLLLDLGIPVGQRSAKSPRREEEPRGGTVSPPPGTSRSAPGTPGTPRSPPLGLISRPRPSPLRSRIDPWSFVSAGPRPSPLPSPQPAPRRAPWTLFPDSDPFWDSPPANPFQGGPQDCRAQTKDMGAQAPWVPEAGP
Sequence of UniProt P29597 (whole entry, looked up): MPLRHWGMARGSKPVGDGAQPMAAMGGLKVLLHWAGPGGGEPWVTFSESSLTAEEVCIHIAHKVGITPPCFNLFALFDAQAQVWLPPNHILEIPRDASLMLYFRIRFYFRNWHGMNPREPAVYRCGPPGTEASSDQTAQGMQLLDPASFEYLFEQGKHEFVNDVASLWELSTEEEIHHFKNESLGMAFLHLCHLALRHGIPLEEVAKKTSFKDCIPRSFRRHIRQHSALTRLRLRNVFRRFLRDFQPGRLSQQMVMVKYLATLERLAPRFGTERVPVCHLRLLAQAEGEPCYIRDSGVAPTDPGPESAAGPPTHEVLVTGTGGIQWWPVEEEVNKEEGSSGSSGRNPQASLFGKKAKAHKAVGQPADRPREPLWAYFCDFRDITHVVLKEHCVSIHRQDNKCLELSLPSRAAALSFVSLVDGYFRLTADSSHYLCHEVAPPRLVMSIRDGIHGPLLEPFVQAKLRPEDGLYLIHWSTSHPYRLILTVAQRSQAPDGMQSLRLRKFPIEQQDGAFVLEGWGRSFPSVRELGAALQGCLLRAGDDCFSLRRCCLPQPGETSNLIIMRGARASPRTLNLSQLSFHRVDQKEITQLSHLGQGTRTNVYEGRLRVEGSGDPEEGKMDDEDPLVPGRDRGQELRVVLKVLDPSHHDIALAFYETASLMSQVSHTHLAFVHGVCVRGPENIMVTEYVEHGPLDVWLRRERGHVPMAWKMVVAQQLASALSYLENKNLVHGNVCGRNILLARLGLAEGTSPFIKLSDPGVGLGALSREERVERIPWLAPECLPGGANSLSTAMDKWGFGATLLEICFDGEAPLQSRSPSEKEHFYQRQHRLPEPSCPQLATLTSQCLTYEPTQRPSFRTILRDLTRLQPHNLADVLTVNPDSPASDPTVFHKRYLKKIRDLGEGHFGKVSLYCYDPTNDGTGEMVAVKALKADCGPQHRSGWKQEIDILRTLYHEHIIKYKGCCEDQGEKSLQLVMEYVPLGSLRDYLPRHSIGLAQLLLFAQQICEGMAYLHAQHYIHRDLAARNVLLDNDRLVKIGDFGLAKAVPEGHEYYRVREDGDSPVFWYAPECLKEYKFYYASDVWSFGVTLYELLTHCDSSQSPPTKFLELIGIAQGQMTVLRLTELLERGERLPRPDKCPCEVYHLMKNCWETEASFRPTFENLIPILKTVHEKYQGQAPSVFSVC
Sequence of UniProt P48730 (whole entry, looked up): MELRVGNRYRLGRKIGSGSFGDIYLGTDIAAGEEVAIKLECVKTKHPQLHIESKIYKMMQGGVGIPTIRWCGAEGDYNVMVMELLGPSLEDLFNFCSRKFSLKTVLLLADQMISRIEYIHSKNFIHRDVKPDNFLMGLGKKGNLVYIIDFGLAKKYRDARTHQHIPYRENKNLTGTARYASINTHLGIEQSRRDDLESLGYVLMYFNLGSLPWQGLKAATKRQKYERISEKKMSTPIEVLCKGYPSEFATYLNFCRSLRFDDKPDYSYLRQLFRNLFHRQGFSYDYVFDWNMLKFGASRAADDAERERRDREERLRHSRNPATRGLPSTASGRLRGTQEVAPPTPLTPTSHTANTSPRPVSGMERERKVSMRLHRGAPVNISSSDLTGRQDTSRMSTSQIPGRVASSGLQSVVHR
Sequence of UniProt P54646 (whole entry, looked up): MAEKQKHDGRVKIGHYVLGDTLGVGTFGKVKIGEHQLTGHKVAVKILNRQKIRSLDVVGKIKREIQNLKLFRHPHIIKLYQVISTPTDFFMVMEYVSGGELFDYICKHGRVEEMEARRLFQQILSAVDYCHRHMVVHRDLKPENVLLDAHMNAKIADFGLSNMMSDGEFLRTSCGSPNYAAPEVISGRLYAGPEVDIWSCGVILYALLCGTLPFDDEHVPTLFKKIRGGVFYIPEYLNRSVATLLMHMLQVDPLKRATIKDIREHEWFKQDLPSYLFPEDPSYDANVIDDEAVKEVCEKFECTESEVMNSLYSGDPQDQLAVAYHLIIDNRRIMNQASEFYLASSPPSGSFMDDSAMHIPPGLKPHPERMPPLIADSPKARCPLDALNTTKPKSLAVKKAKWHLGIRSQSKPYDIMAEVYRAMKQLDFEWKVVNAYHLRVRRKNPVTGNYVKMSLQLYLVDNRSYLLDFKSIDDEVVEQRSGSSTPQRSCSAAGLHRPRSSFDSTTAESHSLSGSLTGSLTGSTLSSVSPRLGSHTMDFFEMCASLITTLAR
Sequence of UniProt P49137 (whole entry, looked up): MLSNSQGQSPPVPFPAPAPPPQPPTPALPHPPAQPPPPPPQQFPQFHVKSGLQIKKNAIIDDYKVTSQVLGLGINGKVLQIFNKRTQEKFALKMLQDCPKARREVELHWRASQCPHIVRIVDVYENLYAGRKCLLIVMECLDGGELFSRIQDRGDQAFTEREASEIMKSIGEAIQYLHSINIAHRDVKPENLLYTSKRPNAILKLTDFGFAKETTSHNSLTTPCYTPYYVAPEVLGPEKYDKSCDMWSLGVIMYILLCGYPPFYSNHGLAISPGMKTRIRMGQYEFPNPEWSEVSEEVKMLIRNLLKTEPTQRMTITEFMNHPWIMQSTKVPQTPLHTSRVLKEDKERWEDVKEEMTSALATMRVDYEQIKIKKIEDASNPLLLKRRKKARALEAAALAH

Study 1
Compound: CCOC(=O)c1cc2cc(-c3cc(C(=O)NCc4ccc(C(=O)O)cc4)nn3C)ccc2[nH]1
Observed: cell-free assay
Technique: competition with immobilised ligand
Tested at: 0.1 µM
Measurement: remaining binding
MAP kinase-activated protein kinase 2 (MAPKAPK2, Homo sapiens, UniProt P49137): 72%
RAC-gamma serine/threonine-protein kinase (AKT3, Homo sapiens, UniProt Q9Y243): 86%
Calcium/calmodulin-dependent protein kinase kinase 1 (CAMKK1, Homo sapiens, UniProt Q8N5S9): 100%
5'-AMP-activated protein kinase catalytic subunit alpha-2 (PRKAA2, Homo sapiens, UniProt P54646): 88%
Tyrosine-protein kinase JAK1, JH2 (JAK1, Homo sapiens, UniProt P23458): 94%
Ribosomal protein S6 kinase alpha-5, C-terminal kinase domain (RPS6KA5, Homo sapiens, UniProt O75582): 100%
G protein-coupled receptor kinase 3 (GRK3, Homo sapiens, UniProt P35626): 96%
Discoidin domain-containing receptor 2 (DDR2, Homo sapiens, UniProt Q16832): 76%
Mitogen-activated protein kinase kinase kinase 11 (MAP3K11, Homo sapiens, UniProt Q16584): 88%
Serine/threonine-protein kinase 38-like (STK38L, Homo sapiens, UniProt Q9Y2H1): 72%
Phosphatidylinositol 4,5-bisphosphate 3-kinase catalytic subunit delta isoform (PIK3CD, Homo sapiens, UniProt O00329): 65%
Dual specificity tyrosine-phosphorylation-regulated kinase 1B (DYRK1B, Homo sapiens, UniProt Q9Y463): 100%
Non-receptor tyrosine-protein kinase TYK2, JH2 (TYK2, Homo sapiens, UniProt P29597): 91%
Casein kinase I isoform delta (CSNK1D, Homo sapiens, UniProt P48730): 81%

Study 2
Organism: Sarcocystis neurona
Observed: parasite growth
Tested at: 10 µM
Time: 96 h
Reference: untreated
Measurement: log2 fold change
CO[C@H]1/C=C/O[C@@]2(C)Oc3c(C)c(O)c4c(O)c(c(/C=N/N5CCN(C)CC5)c(O)c4c3C2=O)NC(=O)/C(C)=C\C=C\[C@H](C)[C@H](O)[C@@H](C)[C@@H](O)[C@@H](C)[C@H](OC(C)=O)[C@@H]1C: 0.51
CN(C)C(=O)C(CCN1CCC(O)(c2ccc(Cl)cc2)CC1)(c1ccccc1)c1ccccc1: -0.45
Cc1ccc(N(CC2=NCCN2)c2cccc(O)c2)cc1: 0.26
CCc1oc2ccccc2c1C(=O)c1cc(Br)c(O)c(Br)c1: -0.0426
CCCSc1ccc2nc(NC(=O)OC)[nH]c2c1: 1.62

Study 3
Cell line: mouse MPNST tumor cells
Technique: high-content immunofluorescence imaging
Refers to: nuclear SOX9
Tested at: 10 µM
Time: 12 h
Setting: mean of 2 replicates
Reference: DMSO control
Reading: higher = more nuclear SOX9
Measurement: nuclear SOX9 intensity
N=C(N)SCCc1ccc(OCc2ccc([N+](=O)[O-])cc2)cc1: 177 % of DMSO
Nc1ncc(Cc2ccc(Br)cc2)s1: 90.5 % of DMSO
COC(=O)/C=C/c1cccc(N(Cc2ccc(-c3ccc(N(C)C)cc3)cc2)C(=O)C2CCCCC2)c1: 111 % of DMSO
O=C(O)Cc1cc(I)c(Oc2ccc(O)c(I)c2)c(I)c1: 101 % of DMSO

Study 4
Technique: logD(dd/w) and ALogP
Setting: JT method
Measurement: lipophilic permeability efficiency
CC(C)C[C@@H]1NC(=O)[C@H](CC(C)C)NC(=O)[C@@H](CC(C)C)NC(=O)[C@H](C(C)C)NC(=O)[C@@H](Cc2cscn2)NC(=O)[C@H](C)NC(=O)[C@H](CCC(=O)N2CCCC2)NC1=O: 1.74
CC(C)C[C@@H]1NC(=O)[C@H](CC(C)C)NC(=O)[C@H](CC(C)C)NC(=O)[C@H](CC(C)C)NC(=O)[C@@H](CCC(=O)N2CCCC2)NC(=O)[C@H](Cc2cscn2)NC(=O)[C@H](C)NC1=O: 2.23
CC(C)C[C@@H]1NC(=O)[C@H](CC(C)C)NC(=O)[C@H](CC(C)C)NC(=O)[C@H](C(C)C)NC(=O)[C@@H](Cc2cscn2)NC(=O)[C@@H](CC(C)C)NC(=O)[C@H](C)NC1=O: 2.65
CC(C)C[C@@H]1NC(=O)[C@H](C)NC(=O)[C@H](C(C)C)NC(=O)[C@H](C)NC(=O)[C@H](C)NC(=O)[C@H](CC(C)C)NC(=O)[C@H](CC(C)C)NC1=O: 1.94
CC(C)C[C@@H]1NC(=O)[C@H](CC(C)C)NC(=O)[C@@H](CC(C)C)NC(=O)[C@H](CC(C)C)NC(=O)[C@@H](Cc2cscn2)NC(=O)[C@H](C)NC(=O)[C@H](CCC(=O)N2CCCC2)NC1=O: 2.12

Further values, each from its own experiment
O=C1CCC(N2Cc3cc(C4CCN(Cc5ccccc5)CC4)ccc3C2=O)C(=O)N1 (centres unmarked)
remaining protein (Eukaryotic peptide chain release factor GTP-binding subunit ERF3A (GSPT1, Homo sapiens, UniProt P15170); degrader, HiBiT; HEK293; 0.004572 µM): 88.9% and 89.1%

Repeated from above (study 4):
CC(C)C[C@@H]1NC(=O)[C@H](CC(C)C)NC(=O)[C@@H](CC(C)C)NC(=O)[C@H](C(C)C)NC(=O)[C@@H](Cc2cscn2)NC(=O)[C@H](C)NC(=O)[C@H](CCC(=O)N2CCCC2)NC1=O: 1.74
CC(C)C[C@@H]1NC(=O)[C@H](CC(C)C)NC(=O)[C@H](CC(C)C)NC(=O)[C@H](CC(C)C)NC(=O)[C@@H](CCC(=O)N2CCCC2)NC(=O)[C@H](Cc2cscn2)NC(=O)[C@H](C)NC1=O: 2.23
CC(C)C[C@@H]1NC(=O)[C@H](CC(C)C)NC(=O)[C@H](CC(C)C)NC(=O)[C@H](C(C)C)NC(=O)[C@@H](Cc2cscn2)NC(=O)[C@@H](CC(C)C)NC(=O)[C@H](C)NC1=O: 2.65
CC(C)C[C@@H]1NC(=O)[C@H](C)NC(=O)[C@H](C(C)C)NC(=O)[C@H](C)NC(=O)[C@H](C)NC(=O)[C@H](CC(C)C)NC(=O)[C@H](CC(C)C)NC1=O: 1.94
